Measured values from different studies.
Parts stem from different laboratories: compare values within a part only. Positions count from the first letter of the parent shown.
Chain of UniProt P28335 (whole entry, looked up): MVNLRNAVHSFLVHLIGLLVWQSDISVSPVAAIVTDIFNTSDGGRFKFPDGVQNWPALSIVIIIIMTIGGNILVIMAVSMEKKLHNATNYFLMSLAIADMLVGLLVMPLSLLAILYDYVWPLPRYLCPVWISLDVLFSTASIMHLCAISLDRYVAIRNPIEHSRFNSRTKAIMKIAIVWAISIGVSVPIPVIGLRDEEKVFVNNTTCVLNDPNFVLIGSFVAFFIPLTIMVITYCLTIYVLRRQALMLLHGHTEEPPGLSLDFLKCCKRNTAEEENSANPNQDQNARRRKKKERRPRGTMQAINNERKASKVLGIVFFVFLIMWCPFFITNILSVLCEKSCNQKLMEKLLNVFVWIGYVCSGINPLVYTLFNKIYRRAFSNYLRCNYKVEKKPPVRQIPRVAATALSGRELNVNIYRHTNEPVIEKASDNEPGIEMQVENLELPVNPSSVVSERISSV

Block 1
Target: UDP-N-acetylglucosamine--peptide N-acetylglucosaminyltransferase 110 kDa subunit (OGT, Homo sapiens, UniProt O15294)
Chain of UniProt O15294 (whole entry, looked up): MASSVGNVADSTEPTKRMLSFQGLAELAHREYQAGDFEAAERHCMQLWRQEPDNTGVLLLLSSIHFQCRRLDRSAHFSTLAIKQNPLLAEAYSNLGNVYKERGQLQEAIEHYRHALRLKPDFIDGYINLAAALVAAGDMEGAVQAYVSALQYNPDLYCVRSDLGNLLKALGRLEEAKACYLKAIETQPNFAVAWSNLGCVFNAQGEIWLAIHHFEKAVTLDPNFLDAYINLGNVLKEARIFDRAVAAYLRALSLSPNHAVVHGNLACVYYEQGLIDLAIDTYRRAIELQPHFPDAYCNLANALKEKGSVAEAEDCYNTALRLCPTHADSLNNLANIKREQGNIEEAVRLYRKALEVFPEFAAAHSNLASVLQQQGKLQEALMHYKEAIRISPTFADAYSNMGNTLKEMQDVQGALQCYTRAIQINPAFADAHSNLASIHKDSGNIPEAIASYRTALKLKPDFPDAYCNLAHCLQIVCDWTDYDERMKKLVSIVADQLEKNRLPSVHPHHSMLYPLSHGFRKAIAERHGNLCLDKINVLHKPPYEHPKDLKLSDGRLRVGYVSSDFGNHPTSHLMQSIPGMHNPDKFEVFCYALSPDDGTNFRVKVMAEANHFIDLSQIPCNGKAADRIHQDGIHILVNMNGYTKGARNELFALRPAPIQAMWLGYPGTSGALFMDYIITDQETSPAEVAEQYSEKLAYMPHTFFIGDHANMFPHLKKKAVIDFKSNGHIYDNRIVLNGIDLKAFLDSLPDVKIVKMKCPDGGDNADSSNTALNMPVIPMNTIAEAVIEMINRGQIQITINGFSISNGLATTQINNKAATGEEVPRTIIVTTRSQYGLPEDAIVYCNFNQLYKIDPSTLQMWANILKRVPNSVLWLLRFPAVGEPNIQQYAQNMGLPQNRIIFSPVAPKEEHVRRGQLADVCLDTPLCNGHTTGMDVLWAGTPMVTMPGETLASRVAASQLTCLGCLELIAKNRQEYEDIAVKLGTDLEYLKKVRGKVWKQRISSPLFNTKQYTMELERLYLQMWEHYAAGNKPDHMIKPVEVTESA
Read-out: binding
Method: phage display NGS
Molecule type: peptide
Reference: input library
Quantity: minimum log2 enrichment ratio
HKHLMDRHDFMYMHA: 3.02
HFASPYYTQWHGHWL: 2.12
SKSHHTEKFWHYTHV: 3
QYLPQYQILPVIYSS: 1.21
YIERTSVMPQYQITY: 4.39
RMYHNHVTDRHVTQ: 1.59
HPNPPKDHWFRTHH: 1.31
HQMPFAFHHDHPFVH: 2.3

Block 2
Target: vanadate, free oxyanion
Method: microfluidic competitive inhibition
Medium: in vitro, cell-free expressed
Concentration: not given
Notes: derived from inhibition constants, unchanged parent 676 nM
Direction: lower = stronger binding
Quantity: oxyanion analog dissociation constant
Starting sequence: PafA, mature enzyme, eGFP fusion (Elizabethkingia meningoseptica, UniProt Q9KJX5); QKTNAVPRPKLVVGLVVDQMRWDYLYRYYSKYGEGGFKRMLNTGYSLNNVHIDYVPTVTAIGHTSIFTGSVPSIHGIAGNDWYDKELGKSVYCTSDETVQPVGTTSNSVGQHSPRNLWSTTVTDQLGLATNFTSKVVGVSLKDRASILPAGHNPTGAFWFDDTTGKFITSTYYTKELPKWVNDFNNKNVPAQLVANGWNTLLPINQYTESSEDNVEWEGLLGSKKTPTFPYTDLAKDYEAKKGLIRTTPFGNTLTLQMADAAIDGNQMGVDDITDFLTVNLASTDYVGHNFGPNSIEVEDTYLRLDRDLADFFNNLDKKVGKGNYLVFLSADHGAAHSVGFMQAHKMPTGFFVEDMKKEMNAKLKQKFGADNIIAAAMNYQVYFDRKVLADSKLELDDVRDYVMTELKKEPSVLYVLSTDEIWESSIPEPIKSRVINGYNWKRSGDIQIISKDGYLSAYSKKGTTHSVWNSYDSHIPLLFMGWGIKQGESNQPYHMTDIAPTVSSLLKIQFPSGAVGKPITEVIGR
Y26V: 660 nM
Y32G: 744 nM
D213G: 561 nM
F480V: 683 nM
S90V: 1.33 µM
Y494G: 781 nM
G265A: 692 nM
T57G: 374 nM

Block 3
Target: CCNE2, cyclin fold, Cln2 fusion (human)
Method: yeast growth competition, sequencing
Medium: yeast
Notes: strong parent motif
Reference: not given
Direction: higher = stronger binding
Quantity: normalised enrichment score
Starting sequence: viral docking peptide; KGVKRKLFAEDSS
KGKKRKLFAEDSS [V3K]: 0.585
KGPKRKLFAEDSS [V3P]: 5.12
KGVKDKLFAEDSS [R5D]: 0.105
KGVKNKLFAEDSS [R5N]: -0.331
KGVKRKLFAEFSS [D11F]: 5.93
KGVKRKLFASDSS [E10S]: 5.94
KGVKRKLFAEESS [D11E]: 7.06
KSVKRKLFAEDSS [G2S]: 6.84

Mixed results
C[C@H](NC(=O)Nc1cc2[nH]ncc2c(CO)n1)c1ccccn1
inhibition (5-hydroxytryptamine receptor 2C (HTR2C, Homo sapiens, UniProt P28335); ligand displacement; 10 µM): 13.6%

Some of these lines once more (block 3):
KGKKRKLFAEDSS [V3K]: 0.585
KGVKDKLFAEDSS [R5D]: 0.105
KGPKRKLFAEDSS [V3P]: 5.12
